Assay results from different studies.
A part holds a random share of what one study measured.

Series 1
Target: PABPC1L2, full length, GST fusion (mouse, UniProt A0ABA7IW68)
Method: RNAcompete
Molecule type: RNA
Matrix: in vitro
Concentration: 20 nM
Notes: 7-mer, probes averaged, single round
Baseline: mean of 7-mers
Direction: higher = stronger binding
Measurement: 7-mer Z-score
Target sequence (chain): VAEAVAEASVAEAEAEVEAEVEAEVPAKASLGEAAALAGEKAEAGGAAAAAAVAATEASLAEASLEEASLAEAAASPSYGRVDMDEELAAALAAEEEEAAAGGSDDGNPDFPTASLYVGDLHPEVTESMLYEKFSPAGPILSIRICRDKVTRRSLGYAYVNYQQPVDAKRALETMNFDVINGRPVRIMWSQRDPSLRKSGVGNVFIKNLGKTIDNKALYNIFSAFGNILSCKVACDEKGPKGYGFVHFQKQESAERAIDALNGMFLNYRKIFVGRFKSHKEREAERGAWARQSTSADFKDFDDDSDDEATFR
AUCGCCA: -0.287
AGCAUAC: -0.104
UCGGGCG: -0.0264

Series 2
Target: Sal-like protein 4, full length isoform B (SALL4, Homo sapiens, UniProt Q9UJQ4-2, residues 1-616)
Method: universal PBM
Molecule type: double-stranded DNA, one strand shown
Matrix: in vitro
Concentration: not given
Notes: 8-mer, flanks averaged, mean of replicates
Direction: higher = stronger binding
Measurement: E-score
GAACTCAC: -0.0177
CGATCTTA: -0.0416
TCGTCGAA: 0.0573
CCTGAGAA: 0.0223

Series 3
Target: RNA binding protein fox-1 homolog 2, RRM domain, GST-SBP tag (RBFOX2, Homo sapiens, UniProt O43251-10, residues 100-194)
Method: RNA Bind-n-Seq
Molecule type: RNA
Matrix: in vitro
Concentration: 365 nM
Notes: natural RNA segment, single round, ends assumed
Baseline: no-protein control
Direction: higher = stronger binding
Measurement: RBNS enrichment (R)
GGGAGUUCUACAGUCCGACGAUCACAAAACAGGCAACAUCCGCCCAGUGGACAUGGAGAUUAGAAGUGACUGUAUGGUCCGGGGGGUUCCUGCUGAGGAGAGGGGCUGAGGGUCCCAUGGAGAAGGGGCUGUAUGGAAUUCUCGGGUGCCAA: 0.931
GGGAGUUCUACAGUCCGACGAUCAUAUUUUGGUCUGGGUUUCCUCUUAAGAUUUUAGUUUGUCUGAAUUAAGGAAAAAUGUUUUUAAUAUACAUUCUUAUUUUGUCCCACCCCUCCAGAAAUAAGCUGGAAAUUGGAAUUCUCGGGUGCCAA: 0.643
GGGAGUUCUACAGUCCGACGAUCUUUCCCCUACCCCCAAGGAUGCCAGGAAGACGUCCACCAUUAGCCAUGUGGCAACCUUUACUUCUAUGCCUCACAAGUGCCUUUCAGAGAGCCCCAAUUCUGCUUUCCCAUGGAAUUCUCGGGUGCCAA: 0.731

Mixed results
PhoQ, residues 284 288 289 292 302 303 AMDMFI — fold induction (PhoP, residues 12 14 15 18 19 FWNTL (Escherichia coli, UniProt P23836); Sort-seq, item: YFP reporter; E. coli; PhoQ-PhoP variant library, together with: 10 µM Mg2+; baseline: high Mg2+ state, higher = stronger signaling): 3.11

For quick reference, copied from above (series 3):
GGGAGUUCUACAGUCCGACGAUCUUUCCCCUACCCCCAAGGAUGCCAGGAAGACGUCCACCAUUAGCCAUGUGGCAACCUUUACUUCUAUGCCUCACAAGUGCCUUUCAGAGAGCCCCAAUUCUGCUUUCCCAUGGAAUUCUCGGGUGCCAA: 0.731
